Published values pooled from the literature.
Lines come from different studies, so protocols differ.
FGFR3 isoform IIIc: FGFR3 isoform IIIc (unknown, UniProt Q61851)
Chain of UniProt Q61851 (whole entry, looked up): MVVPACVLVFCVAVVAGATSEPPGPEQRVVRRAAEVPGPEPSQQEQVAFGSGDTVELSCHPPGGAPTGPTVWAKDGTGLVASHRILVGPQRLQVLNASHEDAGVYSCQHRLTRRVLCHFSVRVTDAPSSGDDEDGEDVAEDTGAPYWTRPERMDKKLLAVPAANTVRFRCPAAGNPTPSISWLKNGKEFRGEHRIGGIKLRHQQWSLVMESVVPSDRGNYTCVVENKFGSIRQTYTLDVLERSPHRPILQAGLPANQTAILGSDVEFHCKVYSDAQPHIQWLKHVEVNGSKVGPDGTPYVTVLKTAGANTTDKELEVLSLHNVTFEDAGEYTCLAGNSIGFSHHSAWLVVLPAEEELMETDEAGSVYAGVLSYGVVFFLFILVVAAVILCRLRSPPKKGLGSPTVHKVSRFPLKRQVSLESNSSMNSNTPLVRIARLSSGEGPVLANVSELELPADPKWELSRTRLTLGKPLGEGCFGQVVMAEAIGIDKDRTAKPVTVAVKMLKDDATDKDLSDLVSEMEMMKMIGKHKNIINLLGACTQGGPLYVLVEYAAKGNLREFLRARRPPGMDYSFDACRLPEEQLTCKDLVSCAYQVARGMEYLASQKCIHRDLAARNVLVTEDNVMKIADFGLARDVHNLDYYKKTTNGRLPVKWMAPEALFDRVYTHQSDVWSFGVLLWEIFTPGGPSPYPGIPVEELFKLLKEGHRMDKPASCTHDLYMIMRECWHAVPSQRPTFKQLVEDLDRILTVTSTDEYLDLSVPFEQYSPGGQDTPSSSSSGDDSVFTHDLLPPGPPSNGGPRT
T1: HSP90AA1 723-732 C-terminal peptide E to K, N-terminal 5-carboxyfluorescein (Homo sapiens); DDTSRMEKVD
B1: PPP1R11 1-64 (Homo sapiens, UniProt O60927); chain MAEAGAGLSETVTETTVTVTTEPENRSLTIKLRKRKPEKKVEWTSDTVDNEHMGRRSSKCCCIY
B2: TIMP3 mature (Homo sapiens, UniProt P35625); N-glycosylated; sequence looked up; chain CTCSPSHPQDAFCNSDIVIRAKVVGKKLVKEGPFGTLVYTIKQMKMYRGFTKMPHVQYIHTEASESLCGLKLEVNKYQYLLTGRVYDGKMYTGLCNFVERWDQLTLSQRKGLNYRYHLGCNCKIKSCYYLPCFVTSKNECLWTDMLSNFGYPGYQSKHYACIRQKGGYCSWYRGWAPPDKSIINATDP
B3: FGF6 (Homo sapiens, UniProt P10767); chain SPAGTRANNTLLDSRGWGTLLSRSRAGLAGEIAGVNWESGYLVGIKRQRRLYCNVGIGFHLQVLPDGRISGTHEENPYSLLEISTVERGVVSLFGVRSALFVAMNSKGRLYATPSFQEECKFRETLLPNNYNAYESDLYQGTYIALSKYGRVKRGSKVSPIMTVTHFLPRI
B4: CTNNB1 T393A (Homo sapiens, UniProt P35222); sequence looked up; chain MATQADLMELDMAMEPDRKAAVSHWQQQSYLDSGIHSGATTTAPSLSGKGNPEEEDVDTSQVLYEWEQGFSQSFTQEQVADIDGQYAMTRAQRVRAAMFPETLDEGMQIPSTQFDAAHPTNVQRLAEPSQMLKHAVVNLINYQDDAELATRAIPELTKLLNDEDQVVVNKAAVMVHQLSKKEASRHAIMRSPQMVSAIVRTMQNTNDVETARCTAGTLHNLSHHREGLLAIFKSGGIPALVKMLGSPVDSVLFYAITTLHNLLLHQEGAKMAVRLAGGLQKMVALLNKTNVKFLAITTDCLQILAYGNQESKLIILASGGPQALVNIMRTYTYEKLLWTTSRVLKVLSVCSSNKPAIVEAGGMQALGLHLTDPSQRLVQNCLWTLRNLSDAAAKQEGMEGLLGTLVQLLGSDDINVVTCAAGILSNLTCNNYKNKMMVCQVGGIEALVRTVLRAGDREDITEPAICALRHLTSRHQEAEMAQNAVRLHYGLPVVVKLLHPPSHWPLIKATVGLIRNLALCPANHAPLREQGAIPRLVQLLVRAHQDTQRRTSMGGTQQQFVEGVRMEEIVEGCTGALHILARDVHNRIVIRGLNTIPLFVQLLYSPIENIQRVAAGVLCELAQDKEAAEAIEAEGATAPLTELLHSRNEGVATYAAAVLFRMSEDKPQDYKKRLSVELTSSLFRTEPMAWNETADLGLDIGAQGEPLGYRQDDPSYRSFHSGGYGQDALGMDPMMEHEMGGHHPGADYPVDGLPDLGHAQDLMDGLPPGDSNQLAWFDTDL
B5: mel-26 (Caenorhabditis elegans, UniProt Q94420); sequence looked up; chain MEPRIDGGVFIGGIGNSGNEMCSNGVPALGVSSQTEIKVEKVQHTWTVKNFSHCYQEYLENFVYLQRGDEQLTWSIKIYPKGNGENNKDFVFLCLNRVINNNVKAGKIGFKSQFKLRTAENKDIEMRIHPNPSHSDYVSYIKRDVLFPQIMPRDMIIVNVEIDVAVETITTTNEPIQFEPTNSEQQLIEDYQRLFSQELLCDFAINVNGKIIRAHKAVLAARSPVFNAMLTHQDTDEAKSSMMYINDMDYDVIYEMVYYIYCGRCNKDITDMATALLIAADKYRLEELKSHCEKYLVENINIENACSLLIIGDLYSAPKLRKRAVTYILARPKNVTGTPGWEDILKGHPNLITDIFSQIDRQSSTGATSSVSNLPGVPMDIPGITGNIVPPPSGL
Chain of UniProt P08253 (whole entry, unmodified, looked up): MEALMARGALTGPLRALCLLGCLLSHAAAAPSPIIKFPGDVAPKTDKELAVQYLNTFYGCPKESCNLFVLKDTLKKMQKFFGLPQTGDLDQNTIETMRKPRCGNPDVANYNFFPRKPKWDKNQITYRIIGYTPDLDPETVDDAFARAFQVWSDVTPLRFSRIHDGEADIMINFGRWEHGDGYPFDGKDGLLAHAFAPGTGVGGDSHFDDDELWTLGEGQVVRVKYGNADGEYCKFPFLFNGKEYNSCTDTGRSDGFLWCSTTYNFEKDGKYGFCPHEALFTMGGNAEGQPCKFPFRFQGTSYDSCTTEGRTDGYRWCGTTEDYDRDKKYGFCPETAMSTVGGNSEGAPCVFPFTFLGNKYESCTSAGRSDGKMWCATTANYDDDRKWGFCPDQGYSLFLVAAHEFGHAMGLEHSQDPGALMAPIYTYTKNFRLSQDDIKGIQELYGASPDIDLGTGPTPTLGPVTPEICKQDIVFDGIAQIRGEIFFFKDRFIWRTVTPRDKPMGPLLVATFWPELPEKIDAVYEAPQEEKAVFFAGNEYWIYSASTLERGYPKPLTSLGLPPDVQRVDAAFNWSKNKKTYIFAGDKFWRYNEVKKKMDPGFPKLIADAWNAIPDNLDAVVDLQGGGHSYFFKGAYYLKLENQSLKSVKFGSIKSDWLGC
Chain of UniProt O60656 (whole entry, looked up): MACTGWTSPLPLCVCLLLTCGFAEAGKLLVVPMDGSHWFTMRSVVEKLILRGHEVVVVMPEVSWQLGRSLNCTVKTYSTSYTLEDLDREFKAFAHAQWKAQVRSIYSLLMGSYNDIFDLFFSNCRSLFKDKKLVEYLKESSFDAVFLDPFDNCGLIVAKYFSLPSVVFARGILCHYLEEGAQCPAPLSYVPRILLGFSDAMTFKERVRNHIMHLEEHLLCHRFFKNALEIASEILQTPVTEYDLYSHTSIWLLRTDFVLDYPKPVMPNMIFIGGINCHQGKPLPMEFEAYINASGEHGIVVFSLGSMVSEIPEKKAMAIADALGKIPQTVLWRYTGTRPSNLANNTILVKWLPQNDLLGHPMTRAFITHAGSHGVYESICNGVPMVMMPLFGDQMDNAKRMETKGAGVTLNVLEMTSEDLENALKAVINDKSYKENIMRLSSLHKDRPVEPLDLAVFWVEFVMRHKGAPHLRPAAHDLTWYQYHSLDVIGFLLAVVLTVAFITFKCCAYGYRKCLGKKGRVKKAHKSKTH
Chain of UniProt Q99615 (whole entry, unmodified, looked up): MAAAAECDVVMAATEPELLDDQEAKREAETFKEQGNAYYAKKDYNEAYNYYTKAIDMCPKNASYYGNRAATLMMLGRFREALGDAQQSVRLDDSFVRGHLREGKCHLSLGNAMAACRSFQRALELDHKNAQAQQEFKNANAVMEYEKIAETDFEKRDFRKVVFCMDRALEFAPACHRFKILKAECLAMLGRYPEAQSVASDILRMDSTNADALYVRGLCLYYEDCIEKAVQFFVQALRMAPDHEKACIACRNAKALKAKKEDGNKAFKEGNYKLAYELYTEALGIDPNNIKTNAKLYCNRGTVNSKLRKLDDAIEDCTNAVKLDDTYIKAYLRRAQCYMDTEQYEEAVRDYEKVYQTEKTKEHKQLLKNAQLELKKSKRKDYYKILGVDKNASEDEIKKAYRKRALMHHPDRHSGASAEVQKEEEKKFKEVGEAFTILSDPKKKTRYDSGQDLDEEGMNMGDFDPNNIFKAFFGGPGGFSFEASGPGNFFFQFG
Chain of UniProt P02462 (whole entry, looked up): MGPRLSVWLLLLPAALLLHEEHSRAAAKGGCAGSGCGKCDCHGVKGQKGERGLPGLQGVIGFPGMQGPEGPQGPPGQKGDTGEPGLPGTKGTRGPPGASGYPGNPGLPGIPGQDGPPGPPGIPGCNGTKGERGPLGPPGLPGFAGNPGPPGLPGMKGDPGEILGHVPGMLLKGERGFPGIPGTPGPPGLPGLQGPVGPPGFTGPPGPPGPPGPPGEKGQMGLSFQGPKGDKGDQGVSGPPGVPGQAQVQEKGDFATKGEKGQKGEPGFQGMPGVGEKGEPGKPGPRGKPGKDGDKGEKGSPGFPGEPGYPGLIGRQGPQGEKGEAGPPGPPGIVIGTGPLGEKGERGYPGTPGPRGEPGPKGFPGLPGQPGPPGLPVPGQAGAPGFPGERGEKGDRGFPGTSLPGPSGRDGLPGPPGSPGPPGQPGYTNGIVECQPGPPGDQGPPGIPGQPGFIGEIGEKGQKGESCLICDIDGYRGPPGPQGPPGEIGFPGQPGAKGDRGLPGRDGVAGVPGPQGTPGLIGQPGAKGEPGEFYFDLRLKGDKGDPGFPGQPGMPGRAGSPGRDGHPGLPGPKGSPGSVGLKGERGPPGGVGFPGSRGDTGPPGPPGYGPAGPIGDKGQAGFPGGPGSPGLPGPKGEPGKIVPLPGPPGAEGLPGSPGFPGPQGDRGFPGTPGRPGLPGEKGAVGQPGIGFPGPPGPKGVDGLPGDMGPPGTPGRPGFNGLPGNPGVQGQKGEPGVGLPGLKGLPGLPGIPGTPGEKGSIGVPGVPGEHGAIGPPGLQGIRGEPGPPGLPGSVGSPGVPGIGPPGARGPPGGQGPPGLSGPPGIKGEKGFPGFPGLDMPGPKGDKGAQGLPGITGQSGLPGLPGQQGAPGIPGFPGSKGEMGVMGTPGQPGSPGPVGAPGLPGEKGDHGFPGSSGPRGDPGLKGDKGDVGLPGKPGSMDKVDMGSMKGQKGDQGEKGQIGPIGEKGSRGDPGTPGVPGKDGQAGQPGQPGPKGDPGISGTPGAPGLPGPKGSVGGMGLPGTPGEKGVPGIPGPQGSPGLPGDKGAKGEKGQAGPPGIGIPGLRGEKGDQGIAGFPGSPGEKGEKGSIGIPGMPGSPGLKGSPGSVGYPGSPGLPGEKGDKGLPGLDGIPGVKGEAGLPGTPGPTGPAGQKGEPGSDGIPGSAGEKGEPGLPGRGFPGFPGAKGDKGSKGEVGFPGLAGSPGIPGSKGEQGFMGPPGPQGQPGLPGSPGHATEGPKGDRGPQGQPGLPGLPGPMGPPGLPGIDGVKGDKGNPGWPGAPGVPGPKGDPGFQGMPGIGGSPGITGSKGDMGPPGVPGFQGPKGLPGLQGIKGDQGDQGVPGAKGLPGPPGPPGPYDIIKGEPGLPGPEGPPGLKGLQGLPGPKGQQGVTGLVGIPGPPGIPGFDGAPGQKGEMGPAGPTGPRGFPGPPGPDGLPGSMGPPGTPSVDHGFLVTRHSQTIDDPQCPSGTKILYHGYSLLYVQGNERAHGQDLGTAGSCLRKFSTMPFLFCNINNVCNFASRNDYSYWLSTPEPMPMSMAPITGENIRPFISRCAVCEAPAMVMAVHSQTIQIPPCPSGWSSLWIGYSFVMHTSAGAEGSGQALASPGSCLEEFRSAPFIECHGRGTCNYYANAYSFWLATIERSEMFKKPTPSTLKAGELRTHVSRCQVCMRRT
Chain of UniProt P70618 (whole entry, unmodified, looked up): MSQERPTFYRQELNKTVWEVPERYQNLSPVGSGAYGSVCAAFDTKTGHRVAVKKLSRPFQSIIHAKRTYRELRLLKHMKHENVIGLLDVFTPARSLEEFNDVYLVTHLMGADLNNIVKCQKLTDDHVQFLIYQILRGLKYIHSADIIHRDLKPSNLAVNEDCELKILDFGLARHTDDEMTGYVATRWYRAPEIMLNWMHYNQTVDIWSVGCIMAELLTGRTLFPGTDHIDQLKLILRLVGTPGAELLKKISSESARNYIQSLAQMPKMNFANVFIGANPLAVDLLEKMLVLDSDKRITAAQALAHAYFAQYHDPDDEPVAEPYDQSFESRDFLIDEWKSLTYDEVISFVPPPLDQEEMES
Chain of UniProt P21784 (whole entry, looked up): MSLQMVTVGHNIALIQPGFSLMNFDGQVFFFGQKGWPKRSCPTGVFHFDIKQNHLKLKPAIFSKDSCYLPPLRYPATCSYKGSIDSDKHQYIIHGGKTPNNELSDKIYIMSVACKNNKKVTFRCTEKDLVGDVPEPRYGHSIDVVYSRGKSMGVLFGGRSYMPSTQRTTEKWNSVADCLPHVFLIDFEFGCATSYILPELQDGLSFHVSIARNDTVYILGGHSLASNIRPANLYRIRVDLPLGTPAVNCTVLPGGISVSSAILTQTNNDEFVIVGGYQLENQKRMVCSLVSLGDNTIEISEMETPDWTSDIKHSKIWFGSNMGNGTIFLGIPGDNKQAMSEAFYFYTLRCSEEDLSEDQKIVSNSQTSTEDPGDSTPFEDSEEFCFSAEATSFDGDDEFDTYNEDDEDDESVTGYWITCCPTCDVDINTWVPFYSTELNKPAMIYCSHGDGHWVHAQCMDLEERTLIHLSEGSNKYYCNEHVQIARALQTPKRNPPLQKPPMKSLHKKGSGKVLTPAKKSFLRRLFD

Molecule | target or system | test | test system | setting | how to read | measurement | value
Ac-DVSNKAYEDAEAKAKYEAEAAFFANLKLSD-NH2 (PRKG1 peptide residues 329-358; N-acetyl, C-terminal amide) | PRKG1 Iα (UniProt P00516) | PKG Iα kinase activity, activator | peptide | – | reference: cGMP controls, higher = stronger activation | maximal activation efficacy | 80%
fabF K65A (Escherichia coli) | acpP C12-acylated 1-78, C12 acyl on 4'-phosphopantetheine (Escherichia coli, UniProt P0A6A8) | holo-AcpP formation, HPLC | – | 10 µM, together with: malonyl-CoA | – | condensation rate | 1.37 min⁻¹
ADM2 fragment (Homo sapiens) | CALCRL/RAMP2 whole, on cells (Homo sapiens) | cAMP, antagonist, CAMYEL BRET | COS-7 | – | – | cAMP decay half-life | 2.68 min
TFPI endogenous, on cells (Homo sapiens, UniProt P10646) | F3/F7 TF-fVIIa complex (Homo sapiens) | factor Xa generation | HUVEC | LPS-treated, endogenous TF, α-cyclodextrin, control | – | maximum factor Xa generated | 27.9 nM
F8 A2 domain (human) | F8 A1 and A3C1C2 dimer, factor VIIIa | FXa generation activity loss | – | 1.5 nM, 23 °C | higher = faster decay | decay rate | 0.14 min⁻¹
B1 (PPP1R11 1-64) | PPP1CA (Oryctolagus cuniculus, UniProt P62139) | PP1 activity, inhibitor | – | – | reference: wild type Inh3 | IC50 shift | 604 fold
F8 A2 subunit D519V/E665V (Homo sapiens) | F8 A1/A3C1C2 dimer (Homo sapiens) | thrombin generation | FVIII-deficient plasma | 0.13 nM | – | peak thrombin | 180 nM
UGT1A9 (Homo sapiens, UniProt O60656) | O=C(/C=C/c1ccc(O)cc1)CC(=O)/C=C/c1ccc(O)cc1 | steady-state kinetics | – | pH 7.4, 37 °C | – | Vmax | 0.00207 µmol/min/mg
YAGRRKERPTSLNVFP (MAPK8IP3 D-site peptide (Homo sapiens)) | Mapk14 N159K/E160S/E163T, pT180, pY182 (Rattus norvegicus, UniProt P70618) | kinase activity, inhibitor, competitive kinase inhibition assay | peptide | together with: ATP 1 mM | – | IC50 | > 100000 nM
Ac-SQHNRQLLRGALRRWK-NH2 (SFI1 repeat 18, 677-692 (Homo sapiens); N-acetyl; C-terminal amide) | CETN1, phosphothreonine (Homo sapiens, UniProt Q12798) | ITC | peptide | – | – | ΔH | -43 kcal/mol
MENVKKRTATTTWMVPTAQ (L3MBTL3 52-70 A58R (Homo sapiens, UniProt Q96JM7-2); sequence looked up) | Rbpj 53-474 (Mus musculus, UniProt P31266) | ITC | peptide | pH 6.5, 25 °C, NaCl 150 mM | – | ΔH | -14 kcal/mol
H3K4me3 peptide, K4me3 | Rag2 (Mus musculus, UniProt P21784) | coupled cleavage of 12-RSS | – | 1 hr, together with: H3K4me3 0.5-4 µM | reference: no peptide, higher = more hairpin | hairpin yield | > 10 fold
B2 (TIMP3 mature) | MMP2 110-465 (Homo sapiens, UniProt P08253) | inhibitor, steady-state kinetics | – | 37 °C, apparent | – | Ki | 0.9 nM
TIF11 fragment (Saccharomyces cerevisiae) | FUN12 396-1002 (Saccharomyces cerevisiae, UniProt P39730) | subunit joining, stopped-flow light scattering | – | – | – | rate constant | 0.013 s⁻¹
DNAJC7 (Homo sapiens, UniProt Q99615) | T1, HSP90AA1 723-732 C-terminal peptide E to K, N-terminal 5-carboxyfluorescein (Homo sapiens) | fluorescence polarisation | – | Lys mutant tracer, together with: 5-Fam peptide tracer 20 nM | reference: wt Hsp90α tracer, higher = weaker binding | affinity change | > 3 fold
B3 (FGF6) | FGFR3 isoform IIIc | cell proliferation, MTT | BaF3-FGFR3c | 20 nM, 48 h, together with: 2-O desulfated heparin 4.9 µg/mL | reference: FGF 1 with heparin, higher = more proliferation | cell proliferation | 26%
TIMP2 N-terminal domain S4E/N38Q/V71N/H97R/T99S | MMP2 (Homo sapiens, UniProt P08253) | fluorogenic substrate cleavage, inhibitor, enzyme inhibition assay | – | apparent | – | Ki | 84 nM
NPY N7F/Q34P | Npy1r (Rattus norvegicus, UniProt P21555) | agonist, whole-cell current clamp | BLA pyramidal neurons, rat brain slices | 1 µM | – | membrane hyperpolarisation | 5.5 mV
Itga1/Itgb1 whole, on cells (Mus musculus) | COL4A1 (Homo sapiens, UniProt P02462) | cell attachment assay | MLEC | together with: function-blocking α1β1 integrin antibody | reference: control IgG or PBS, higher = more attachment | cell attachment | 56%
B4 (CTNNB1 T393A) | Axin (Xenopus, UniProt Q9YGY0) | immunoblot | C57MG | – | higher = more phosphorylation | phosphorylated to total β-catenin ratio | 0.9 ratio
SUMO1 fragment H89E (Arabidopsis thaliana) | SAE2/SAE1a (Arabidopsis thaliana) | SUMO conjugation | – | 42 °C | reference: native AtSUMO1, higher = faster conjugation | SUMO conjugation rate | 90%
FGF8b (Homo sapiens) | FGFR3 isoform IIIc | cell proliferation, MTT | BaF3-FGFR3c | 20 nM, 48 h, together with: heparin 4.9 µg/mL | reference: FGF 1 with heparin, higher = more proliferation | cell proliferation | 105%
ARSPLLPVSVPTAPEVSEESHKPTEDSANVYEQDDLSEQMASLEGLMKQLNAITGSAF (DCC 1390-1447 (Homo sapiens, UniProt P43146); sequence looked up) | MYO10 MyTH4-FERM 1486-2058 del1872-1891 (Homo sapiens, UniProt Q9HD67) | SEC and AUC | peptide | – | – | molecule per partner | 1
B5 (mel-26) | mei-1 S113A, phosphorylated by MBK-2 (Caenorhabditis elegans, UniProt P34808) | far-Western | – | 4 °C, denatured | – | binding | binds
FGF8 (Homo sapiens, UniProt P55075) | FGFR3 isoform IIIc | cell proliferation, MTT | BaF3-FGFR3c | 20 nM, 48 h, together with: unmodified decamer 4.9 µg/mL | reference: FGF 1 with heparin, higher = more proliferation | cell proliferation | 3%

A few entries again:
Molecule | target or system | test | test system | setting | how to read | measurement | value
TIF11 fragment (Saccharomyces cerevisiae) | FUN12 396-1002 (Saccharomyces cerevisiae, UniProt P39730) | subunit joining, stopped-flow light scattering | – | – | – | rate constant | 0.013 s⁻¹
MENVKKRTATTTWMVPTAQ (L3MBTL3 52-70 A58R (Homo sapiens, UniProt Q96JM7-2); sequence looked up) | Rbpj 53-474 (Mus musculus, UniProt P31266) | ITC | peptide | pH 6.5, 25 °C, NaCl 150 mM | – | ΔH | -14 kcal/mol
B5 (mel-26) | mei-1 S113A, phosphorylated by MBK-2 (Caenorhabditis elegans, UniProt P34808) | far-Western | – | 4 °C, denatured | – | binding | binds
NPY N7F/Q34P | Npy1r (Rattus norvegicus, UniProt P21555) | agonist, whole-cell current clamp | BLA pyramidal neurons, rat brain slices | 1 µM | – | membrane hyperpolarisation | 5.5 mV
